# Measurements pooled from the literature.
# Every numbered part comes from another study and shows a few of its results, in no order. Changes are numbered by the printed parent chain.

# Series 1
# Target: CCNA1, cyclin fold, Cln2 fusion (human)
# Method: yeast growth competition, sequencing
# Medium: yeast
# Notes: weak parent motif
# Reference: not given
# Reading: higher = stronger binding
# Parent: CDC6 docking peptide (human); TLKGRRLVFDNQL
Variant,normalised enrichment score
F9E,0.652
D10K,0.142
V8T,0.25
R5L,0.379
L7S,0.000771
L2K,0.47
L7T,0.00696
L7K,0.286
L2W,0.155
D10P,-0.056
L2T,-0.104
Q12G,0.512
K3V,0.431
R6M,0.562
N11S,0.16

# Series 2
# Target: ABI1, truncated, D143A, DHFR fusion (Arabidopsis thaliana)
# Method: DHFR PCA, deep sequencing
# Medium: yeast
# Notes: methotrexate growth selection, single substitutions
# Together with: (+)-ABA 0.11 µM
# Reference: wild-type fitted maximum
# Reading: higher = stronger binding
# Parent: PYL1, truncated, DHFR fusion (Arabidopsis thaliana); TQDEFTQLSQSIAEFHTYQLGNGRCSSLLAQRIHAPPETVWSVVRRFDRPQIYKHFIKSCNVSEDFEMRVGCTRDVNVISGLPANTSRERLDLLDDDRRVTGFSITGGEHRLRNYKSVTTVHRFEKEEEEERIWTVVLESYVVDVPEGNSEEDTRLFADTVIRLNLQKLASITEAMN
Variant,relative binding score [%]
V100P,-0.241
T120M,-5.81
R111C,13
E64T,27.1
L20C,43.3
V44T,-6.17
V145L,-9.56
E67M,0.306
L138A,-6.99
I172F,1.83
C72D,25.5
T120H,-4.01

# Single results of other studies
Molecule,tested on,assay,test system,conditions,how to read,measurement,result
"GNL2 (Homo sapiens, UniProt Q13823)","RPF2 (Homo sapiens, UniProt Q9H7B2)",cross-linking MS,cell fractions,together with: DSSO,,cross-linked residues,T265 to K270
"PhoQ, residues 284 288 289 292 302 303 SSYNSA","PhoP, residues 12 14 15 18 19 TPWLV (Escherichia coli, UniProt P23836)","Sort-seq, item: YFP reporter",E. coli,"PhoQ-PhoP variant library, together with: 10 µM Mg2+","reference: high Mg2+ state, higher = stronger signaling",fold induction,0.875
"HNRNPM (Homo sapiens, UniProt P52272)","MYEF2 (Homo sapiens, UniProt Q9P2K5)",cross-linking MS,,hits only,,interaction screen,cross-linked
"CPSF2 (Homo sapiens, UniProt Q9P2I0)","CPSF3 (Homo sapiens, UniProt Q9UKF6)",cross-linking MS,cell fractions,together with: DMTMM,,cross-linked residues,E627 to K487
"IPO7 (Homo sapiens, UniProt O95373)","H1-10 (Homo sapiens, UniProt Q92522)",cross-linking MS,cell fractions,together with: DMTMM,,cross-linked residues,D733 to K42

# Excerpt of the above (single results of other studies):
Molecule,tested on,assay,test system,conditions,how to read,measurement,result
"GNL2 (Homo sapiens, UniProt Q13823)","RPF2 (Homo sapiens, UniProt Q9H7B2)",cross-linking MS,cell fractions,together with: DSSO,,cross-linked residues,T265 to K270
"PhoQ, residues 284 288 289 292 302 303 SSYNSA","PhoP, residues 12 14 15 18 19 TPWLV (Escherichia coli, UniProt P23836)","Sort-seq, item: YFP reporter",E. coli,"PhoQ-PhoP variant library, together with: 10 µM Mg2+","reference: high Mg2+ state, higher = stronger signaling",fold induction,0.875
"HNRNPM (Homo sapiens, UniProt P52272)","MYEF2 (Homo sapiens, UniProt Q9P2K5)",cross-linking MS,,hits only,,interaction screen,cross-linked
"CPSF2 (Homo sapiens, UniProt Q9P2I0)","CPSF3 (Homo sapiens, UniProt Q9UKF6)",cross-linking MS,cell fractions,together with: DMTMM,,cross-linked residues,E627 to K487
"IPO7 (Homo sapiens, UniProt O95373)","H1-10 (Homo sapiens, UniProt Q92522)",cross-linking MS,cell fractions,together with: DMTMM,,cross-linked residues,D733 to K42
